Results pooled from the literature.
Numbered parts are unrelated; each lists some results of a single study.

Series 1
Target: RNA binding protein fox-1 homolog 2, RRM domain, GST-SBP tag (RBFOX2, Homo sapiens, UniProt O43251-10, residues 100-194)
Technique: RNA Bind-n-Seq
Molecule type: RNA
Matrix: in vitro
Tested at: 365 nM
Setting: natural RNA segment, single round, ends assumed
Baseline: no-protein control
Direction: higher = stronger binding
Construct (chain): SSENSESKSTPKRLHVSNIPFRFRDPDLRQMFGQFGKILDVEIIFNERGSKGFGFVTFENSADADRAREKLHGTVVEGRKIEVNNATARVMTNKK
Sequence | RBNS enrichment (R)
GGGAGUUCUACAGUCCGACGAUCGCUCCAACAUUUUGAUUCCUGUUAAUUUUGUUCUUUAAUUAAAUGACUACUUAUUACAGGAAAUGAAUAAAGGCUUUCACUUUCUUGGGGUUGGGAUGAGGUAUAGCUGGUGGAAUUCUCGGGUGCCAA | 0.467
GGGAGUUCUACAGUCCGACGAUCUCUUCAAGUCCCGCUGACGUCUGAGCUUUGAUGCUUAAGAGGGGUGAGGCAGGGAGCGGACUUCCUAUUUUCUACCCUCAGUAAAACAAGGUGCUGCUUUGUAUAUCAAAUGGAAUUCUCGGGUGCCAA | 0.379
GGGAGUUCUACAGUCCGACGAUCAGGCCCCUGACAGUGGAAACAGAAGAUGCUAAGCUGUCAUAGGUGGAGCAGGAUCCUAAGGACGCACAAUAUCAGUUGUGCGUGCUGUAAAGGGACAAACCGAGGAAGUAUGGAAUUCUCGGGUGCCAA | 0.291
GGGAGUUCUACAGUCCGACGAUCGUGUCUUCUUGCCUUGAGGAACCUUAAUGGCAUUGUGGCCACCACAUGUGACUCUUCUCCGUGACUCUAUAAAGACCUAGCAGAGCAUGUGAGCAUUCUCAAACAAGAGAUGGAAUUCUCGGGUGCCAA | 0.252
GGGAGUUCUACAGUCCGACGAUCUAGUUGUGUCUUAAUGGAAUUAAUAAAUGUCAUUUCACUACUGGUGUUCUGUUUCAAUGUAUAAGGACUAUAGUGAUUUAAACUCAUCAAUGUGCCUUUGCAUAAAGUUCUGGAAUUCUCGGGUGCCAA | 0.287
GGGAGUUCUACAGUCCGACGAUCCAUGCAGGUAAUGACAAUAUACUGUAAAUACCACAUGUGAGUUUACCUGAAUCUGUGCAUUUUGUGCCUUAUUCAUGAGAAUGAUAGAAGUACUAAAAUCUGUCAAGUGUUGGAAUUCUCGGGUGCCAA | 0.261
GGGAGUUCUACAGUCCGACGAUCUCUUUUUCCAGUUUACACAGACCGGUCCCCACAGUGCAGAAUCCAUUUCUCUUUCGUCUCAACAGUAGACAACUAGGAUGUGGAUCUCAUAUUUAUAAGUAUGCAUUUUAUGGAAUUCUCGGGUGCCAA | 0.653
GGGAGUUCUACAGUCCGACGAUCAUGAUGCCCAUAAUUGCAAGACUAUUCCUGUAAAAAUAACAAUUAUUGGGUAAUAACUUCAAGAGGAAUGAGAAGUGACAAAAUUGAUUUAAAAUAUUGUUCUACUUAUAUGGAAUUCUCGGGUGCCAA | 0.655
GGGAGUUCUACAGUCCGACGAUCGCCUACUCCGCUCACUGAACUCCUUCCCCACUUCUGUGCCACCCCCGGUCUAUGUCGAGAGCUGGCCAAAGAGCCUUUCCAAAGAGGAGCGAUGGGCCCCUGGCCCCGCCUGGAAUUCUCGGGUGCCAA | 0.649

Series 2
Target: Interferon regulatory factor 5, full length, phosphomimetic (IRF5, Homo sapiens, UniProt Q13568-2, residues 1-514, S451D/S453D/S456D/S462D)
Technique: protein-binding microarray
Molecule type: double-stranded DNA, one strand shown
Matrix: in vitro
Tested at: 940 nM top
Setting: 60-bp whole probe
Together with: salmon DNA 0.4 mg/ml
Baseline: random background probes
Direction: higher = stronger binding
Shared flanks, not repeated: GCCTAGCAC … GTCTTGATTCGCTTGACGCTGCTG
Sequence | fitted relative affinity
TTCAGTTTTCCTCTGTCATTGTGCTAG | 1.5 z-score
GACGCTTTCGGGACTGGGGACGTGCTA | 1.96 z-score
TTAGGTCTCCTAGTGCTTTAGTGCTAG | -0.404 z-score
GACGATCTCAAACTGGAGACGTGCTAG | -0.42 z-score
TTAGGTATCGGGACTGGTTTAGTGCTA | 4.74 z-score
CTCTGCTTGTGTCTGGGCTTGTGCTAG | -0.215 z-score
TAAGAACTGGGGTTTCGATTAGTGCTA | 5.8 z-score
AGTATGAGTTGCCCTTTCCCGTGCTAG | 0.274 z-score
TTAGGTTCCATTTTCCTTTAGTGCTAG | 1.04 z-score
GACGATATCAGTATCCAGACGTGCTAG | -0.187 z-score
TTAGGTATCCTTATTCTTTAGTGCTAG | 0.511 z-score
CTGCCTCACATTGCTAAGACGTGCTAG | 0.187 z-score
AAAGATATAAATGTAACATGGTGCTAG | -0.154 z-score
AGCTCCCTTTCTCTCTGTGAGTGCTAG | 1.33 z-score
TTAGCTATCGACACTGGGTTAGTGCTA | 0.0626 z-score
CAGGTTTTGCTAAGTCAACTGGTGCTA | 0.473 z-score
CGTCATTTCACAGTTAACCAGTGCTAG | 0.244 z-score
TCATATATACACTTATGACTGTGCTAG | 0.629 z-score
TCAAGTCCCAAGAATGGTACTGTGCTA | -0.421 z-score
GACGGTATCGGGTTTCGGGCCGTGCTA | 5.16 z-score
GTAGGTTTCCTTATCCTTTAGTGCTAG | 1.91 z-score
AGCATCTTCAAGACTCATAATGTGCTA | 0.0107 z-score
TCATTGATGGCTCTCTGACTGTGCTAG | -0.728 z-score
GACGTTTTCCTACTGCTGACGTGCTAG | 0.558 z-score
TCAACCATCCCTTATAAAACTGTGCTA | 0.893 z-score

Series 3
Target: RING finger protein unkempt homolog, zinc fingers 1-6, GST-SBP tag (UNK, Homo sapiens, UniProt Q9C0B0, residues 30-357)
Sequence of UniProt Q9C0B0 (30-357, looked up): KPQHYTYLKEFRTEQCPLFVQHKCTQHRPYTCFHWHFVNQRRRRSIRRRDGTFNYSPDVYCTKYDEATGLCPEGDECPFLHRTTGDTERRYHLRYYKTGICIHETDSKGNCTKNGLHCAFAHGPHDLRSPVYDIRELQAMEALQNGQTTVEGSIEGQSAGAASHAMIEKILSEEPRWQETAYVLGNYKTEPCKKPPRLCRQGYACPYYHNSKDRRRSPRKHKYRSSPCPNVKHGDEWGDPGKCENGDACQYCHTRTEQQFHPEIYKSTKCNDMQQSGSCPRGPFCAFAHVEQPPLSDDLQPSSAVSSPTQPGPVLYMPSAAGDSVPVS
Technique: RNA Bind-n-Seq
Molecule type: RNA
Matrix: in vitro
Tested at: not given
Setting: RNA with constant flanks, ends assumed
Baseline: input RNA pool
Direction: higher = stronger binding
Sequence | bound/input enrichment [ratio]
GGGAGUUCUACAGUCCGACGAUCGGGCUGCAGACAUGUAGGAUGGAGUGAGGUGUGUUUCCUGUCACCCUCCACUCCCCAGCUUCCGUUUCAUAAAUGUAGUUUUAGAUCCCUCACUGCUUGGUUCCCAAAGCCUUAUUACUGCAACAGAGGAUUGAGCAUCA | 2
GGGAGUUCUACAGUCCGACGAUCUGUCAGCAGAAACAUUUAAUGUGAAAUAAUUCUGUAUUUCUGAGACAAGAUCAACACAGCCGUUCUUUACAUUGAGCUGAGGUGAAUGUAUACUUAAAAAUACUCUAUUUUCUUUUUAUACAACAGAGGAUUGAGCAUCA | 0.132
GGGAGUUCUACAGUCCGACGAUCAAGCAUGAGUAUCAAGCAAAUGGGCCAGAAGACCUCAAUCGGACCUGUAUUGCUGAAAAGCCCGGUGGCUCCUUAAUUGUAGCCUUUGAAGGAUCCCCUGUGUAGACCGCCAGUCAGUGCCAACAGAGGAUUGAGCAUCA | 0.136
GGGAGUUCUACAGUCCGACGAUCUGAAAAUGCUUUCGAGAGACUACUGGACAUUAUUUCAGAGGAGGGGAACAGUGAUGGAGGUACCGCCGUUGAAGAUUGUUUGAUUUUGCUCCAAAACUUAUUAAAAAACAACAACUCCAACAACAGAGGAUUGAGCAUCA | 0.307
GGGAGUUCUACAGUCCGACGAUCUACAUCGCAUUAGACAUUUUUACAUGAGAAAAGUCAAAUUUACUCAACAGAAUUACCAUGACCGACUUUCACAAAUUCUAACAGAUUUCCCCAAAUUGGAUGAUAUUCAUCCGUUCUAUGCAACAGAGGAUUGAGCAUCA | 1.79
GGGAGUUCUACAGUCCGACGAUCCAGUGGCGUUUGGAGGAGACUCGAAACUGGAUGGCUUCUACAGGGAGCCAGGCCUCUGAUACCGACGAGAUUUUUGGAUUCUUCAACGAUGGCGAACCUCCCACCAAAAAGCCCAGGAAGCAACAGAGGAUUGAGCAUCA | 0.14
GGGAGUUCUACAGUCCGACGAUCAGUACUGGCAGUCGAGGCAGCUGCGGAUCAUCAGGAAGAACUGCUGAGAAAAGUGCUCACCGUUUCAAGUCUGAUCAGGUGAAGGUCAAGCAGGAACCUGGGACUGAAGAAGAGAUAUGCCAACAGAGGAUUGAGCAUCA | 0.103
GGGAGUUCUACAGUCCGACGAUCAUUAGAAAUGAUACUUUCAGUGACUCUCCAGUUUGGCCCUGGAUCCCAUCUUUGUCUGAUACCGCAGCUGUAUUCUUCAACAUGGGCGUUGGUUUUGGAUCUUUGUUUCCUCUGGAGACUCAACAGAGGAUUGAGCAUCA | 0.529

Series 4
Target: Ras GTPase-activating protein-binding protein 1, C-terminal RGG region (G3BP1, Homo sapiens, UniProt Q13283)
Sequence of UniProt Q13283 (whole entry, looked up): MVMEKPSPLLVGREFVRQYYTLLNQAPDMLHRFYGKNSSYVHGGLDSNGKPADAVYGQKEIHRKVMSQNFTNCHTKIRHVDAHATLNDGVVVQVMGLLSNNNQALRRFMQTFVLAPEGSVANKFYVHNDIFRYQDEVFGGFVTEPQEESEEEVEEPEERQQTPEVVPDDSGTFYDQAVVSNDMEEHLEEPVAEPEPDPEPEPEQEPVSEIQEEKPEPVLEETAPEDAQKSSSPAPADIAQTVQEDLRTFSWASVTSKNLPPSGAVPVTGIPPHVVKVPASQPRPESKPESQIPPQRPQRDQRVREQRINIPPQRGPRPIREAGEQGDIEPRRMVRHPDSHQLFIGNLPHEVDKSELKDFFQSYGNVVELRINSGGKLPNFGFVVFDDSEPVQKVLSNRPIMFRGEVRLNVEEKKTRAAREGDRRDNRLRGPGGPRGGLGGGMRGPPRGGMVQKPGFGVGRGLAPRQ
Technique: RNA Bind-n-Seq
Molecule type: RNA
Matrix: in vitro
Tested at: 1 µM
Setting: whole 134-nt RNA, ends assumed
Together with: 150 mM KCl
Baseline: input library
Direction: higher = stronger binding
Sequence | log2 enrichment
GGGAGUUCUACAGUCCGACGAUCUUUACCCCUCACUGGAGUCAGAUGAAGACAACCCCAUCUUUAAGUCCCGGUCGAAGAAAAGGAAAGGCUCAGACGACGCUCCCUACAGCCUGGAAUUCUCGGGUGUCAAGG | -1.06
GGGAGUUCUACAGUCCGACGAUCAAGUCCUGUGCUACACAUCGUAUGUACCGAAUCGGGUGGGUUUGGGAAAAAAAGGGAAAGUAUUAUGUUACGCCGUUCGGAUCUGCACUUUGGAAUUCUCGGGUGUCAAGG | -0.0296
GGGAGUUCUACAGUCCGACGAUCAGUCCUGUGCUACACAUCGUAUGUACCGAAUCGGGGUUUUGGUUUUGGGGUUUUGGGAAAGUAUUAUGUUACGCCGUUCGGAUCUGCACUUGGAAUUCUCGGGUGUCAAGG | -0.689
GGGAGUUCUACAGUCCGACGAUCGUCCUGUGCUACACAUCGUAUGUACCGAAUCGGGGUUUUUGGGGAAAAAGGGGUGGGGAAAGUAUUAUGUUACGCCGUUCGGAUCUGCACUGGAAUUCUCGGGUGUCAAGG | 2
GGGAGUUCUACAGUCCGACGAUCGCAGGAAGUAAAAACAAAUGGAAAUGCUUCGGAUAGUGGCAGGGGUAAAGGUUGCUAAGGAAAGGGUGGGAUGGGAGUGGGUAAAGAGUUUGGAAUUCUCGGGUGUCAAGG | 1.79
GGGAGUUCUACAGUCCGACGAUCGUCCUGUGCUACACAUCGUAUGUACCGAAUCGGGAAAAAAAGGGUUUGGGUUUUUGGGAAAGUAUUAUGUUACGCCGUUCGGAUCUGCACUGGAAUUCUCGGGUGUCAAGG | 0.0154
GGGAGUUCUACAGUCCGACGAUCACUGAUGAGAGCCUGAGGAGCCAUUUUGAGCAAUGGGGAACGCUCACGGACUGUGUGGUAAGAUUUGGAAGGGACAAAGCAGUAAAACAGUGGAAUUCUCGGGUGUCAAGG | -0.629
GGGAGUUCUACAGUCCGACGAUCACCAUGCAGGUGGGCACCUUUGGGAAGUGGGGCAAGGGGGGGAUAGGGAGGGGGGUAACACUUUGGGAACAGGUGGUCCCAGGUCGUUUCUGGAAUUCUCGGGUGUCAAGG | -0.934
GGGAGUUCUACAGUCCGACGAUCUGGGAGGUGGAUUUUUUUUAUUUUUUUAGCUCAUUUCCAGGGGUGGGAAUUUUUUUUUAAUAUGUGUCAUGAAUAAAGUUGUUUUUGAAAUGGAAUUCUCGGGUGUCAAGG | 3.5
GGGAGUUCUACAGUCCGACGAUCCCUCAAGUCCUGUGCUACACAUCGUAUGUACCGAAUCGGUGGAGGUUUUUGGAAAGUAUUAUGUUACGCCGUUCGGAUCUGCACUUCCAGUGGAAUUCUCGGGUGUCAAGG | -0.513

Repeated from above (series 2):
Sequence | fitted relative affinity
TTAGGTATCCTTATTCTTTAGTGCTAG | 0.511 z-score
TTAGCTATCGACACTGGGTTAGTGCTA | 0.0626 z-score
GACGATATCAGTATCCAGACGTGCTAG | -0.187 z-score
CTCTGCTTGTGTCTGGGCTTGTGCTAG | -0.215 z-score
